Results collected from several papers.
Protocols differ between the studies behind these lines. ± marks the error that the study gave.

N=C(N)NCCC[C@@H]1NC(=O)[C@H](CCCCNC(=O)CCOCCOCCOCCOCCNC(=O)CN2CCN(CC(=O)O)CCN(CC(=O)O)CCN(CC(=O)O)CC2)NC(=O)[C@@H](Cc2ccccc2)NC(=O)[C@H](CC(=O)O)NC(=O)CNC1=O [indium-111 labelled] — tumour to tissue ratio (athymic nude mice, female, U-87 MG glioma xenograft, tumour and muscle; intravenous, 0.5 h; baseline: tumour over muscle): 3.46 ± 1.23
C[C@@H](O)[C@H](NC(=O)[C@@H]1CSSC[C@H](NC(=O)[C@@H](Cc2ccccc2)NC(=O)CN2CCCN3CCN(CCCN(CP(=O)(O)O)CC3)CC2)C(=O)N[C@@H](Cc2ccc(O)cc2)C(=O)N[C@H](Cc2c[nH]c3ccccc23)C(=O)N[C@@H](CCCCN)C(=O)N[C@@H]([C@@H](C)O)C(=O)N1)C(=O)O [copper-64 labelled] — tumour-to-tissue ratio (Lewis rat, male, tumour-bearing; 4 h; baseline: tumour over muscle): 178 ± 56
CCCC[C@H](NC(=O)CCCCCCCNC(=O)c1ccc(NN)nc1)C(=O)N[C@H]1CC(=O)NCCCC[C@@H](C(N)=O)NC(=O)[C@H](Cc2c[nH]c3ccccc23)NC(=O)[C@H](CCCNC(=N)N)NC(=O)[C@@H](Cc2ccccc2)NC(=O)[C@H](Cc2c[nH]cn2)NC1=O [technetium-99m labelled] — uptake (C57 mouse, B16/F1 melanoma, tumor; intravenous, 4 h): 22.2 ± 5.93 %ID/g
CCCC[C@H](NC(=O)CNC(=O)CNC(=O)c1ccc(NN)nc1)C(=O)N[C@H]1CC(=O)NCCCC[C@@H](C(N)=O)NC(=O)[C@H](Cc2c[nH]c3ccccc23)NC(=O)[C@H](CCCNC(=N)N)NC(=O)[C@@H](Cc2ccccc2)NC(=O)[C@H](Cc2c[nH]cn2)NC1=O [technetium-99m labelled] — tissue uptake (C57 mouse, B16/F1 melanoma-bearing, blood; intravenous, 0.5 h): 2.62 ± 0.09 %ID/g
N=C(N)NCCC[C@H](NC(=O)[C@H](CCCCN)NC(=O)[C@H](CCC(N)=O)NC(=O)CCOCCOCCOCCNC(=O)CN1CCN(CC(=O)O)CCN(CC(=O)O)CCN(CC(=O)O)CC1)C(=O)N[C@@H](CCCCN)C(=O)N[C@@H](CCCNC(=N)N)C(=O)N[C@@H](CCCCN)C(=O)N[C@@H](CCCCN)C(=O)N[C@@H](CO)C(=O)N[C@@H](CCCNC(=N)N)C(=O)N[C@@H](Cc1ccc(O)cc1)C(=O)N[C@@H](CCCCN)C(=O)N[C@@H](CO)C(=O)O [copper-64 labelled] — time to peak tumour radioactivity (PET; mice, B16-F10 melanoma; intravenous, dose not given): 10 min
N=C(N)NCCC[C@@H]1NC(=O)[C@H](CCCCNC(=O)CNC(=O)CNC(=O)CNC(=O)c2ccc(NN=Cc3ccccc3S(=O)(=O)O)nc2)NC(=O)[C@@H](Cc2ccccc2)NC(=O)[C@H](CC(=O)O)NC(=O)CNC1=O [technetium-99m labelled] — log P (shake-flask; n-octanol/phosphate buffer; pH 7.4): -4.4 ± 0.19
Cc1ncsc1-c1ccc(CNC(=O)[C@@H]2C[C@@H](OC(=O)OCCSSCCn3cc(CCCC(=O)N[C@@H](Cc4ccc(O)cc4)C(=O)N[C@@H](CCCNC(=N)N)C(=O)N[C@@H](CCCNC(=N)N)C(=O)N[C@@H](CCCNC(=N)N)C(=O)N[C@@H](CCCNC(=N)N)C(=O)N[C@@H](CCCNC(=N)N)C(=O)N[C@@H](CCCNC(=N)N)C(=O)N[C@@H](CCCNC(=N)N)C(=O)N[C@@H](CCCNC(=N)N)C(=O)N[C@@H](CCCNC(=N)N)C(N)=O)nn3)CN2C(=O)[C@@H](NC(=O)COCCOCCOCCNC(=O)C[C@@H]2N=C(c3ccc(Cl)cc3)c3c(sc(C)c3C)-n3c(C)nnc32)C(C)(C)C)cc1 — remaining intact compound (UHPLC; PBS; 100 nM, 24 h, 37 °C, together with: 5 mM glutathione; baseline: total peak area): 0%
N=C(N)NCCC[C@@H]1NC(=O)[C@H](CCCCNC(=O)CC[C@H](NC(=O)CCOCCOCCOCCOCCNC(=O)CN2CCN(CC(=O)O)CCN(CC(=O)O)CCN(CC(=O)O)CC2)C(=O)NCCCC[C@@H]2NC(=O)[C@@H](Cc3ccccc3)NC(=O)[C@H](CC(=O)O)NC(=O)CNC(=O)[C@H](CCCNC(=N)N)NC2=O)NC(=O)[C@@H](Cc2ccccc2)NC(=O)[C@H](CC(=O)O)NC(=O)CNC1=O [indium-111 labelled] — tumour to tissue ratio (athymic nude mice, female, U-87 MG glioma xenograft, tumour and liver; intravenous, 72 h; baseline: tumour over liver): 2 ± 0.26
CC(C)C[C@@H]1NC(=O)[C@H](C(C)C)NC(=O)[C@H](CO)NC(=O)CNC(=O)CNC(=O)[C@H](CCCNC(=N)N)NC(=O)[C@@H]2CCCN2C(=O)[C@@H](NC(=O)CC[C@H](NC(=O)c2ccc(N(C)Cc3cnc4nc(N)nc(N)c4n3)cc2)C(=O)O)C(C)(C)SSC[C@@H](C(=O)O)NC(=O)CNC(=O)[C@H]([C@@H](C)O)NC(=O)[C@H](C(C)C)NC1=O — half-life (acetate buffer; 100 µM, pH 4.0, 70 °C): 217 h
CSCC[C@H](NC(=O)[C@H](CC(C)C)NC(=O)[C@H](Cc1c[nH]cn1)NC(=O)CNC(=O)[C@@H](NC(=O)[C@H](C)NC(=O)[C@H](Cc1c[nH]c2ccccc12)NC(=O)[C@H](CCC(N)=O)NC(=O)CCCCCNC(=O)CN1CCN(CC(=O)O)CCN(CC(=O)O)CC1)C(C)C)C(N)=O [gallium-68 labelled] — remaining parent (radio-HPLC; fetal bovine serum; 2 h, 37 °C): 89.2%
CC(C)C[C@H](NC(=O)[C@@H]1CCCN1C(=O)[C@H](CCCCN)NC(=O)[C@@H](N)CO)C(=O)N1CCC[C@H]1C(=O)N[C@@H](CCC(=O)O)C(=O)N[C@H](C(=O)N[C@H](C(=O)N[C@@H](CC(=O)O)C(=O)N[C@@H](CCC(=O)O)C(=O)N[C@@H](Cc1ccc(O)cc1)C(=O)N[C@@H](Cc1cn(CCOCCOCCOCCNC(=O)CCc2ccc(O)c(CN(CCN(CC(=O)O)Cc3cc(CCC(=O)NCCCC[C@H](NC(=O)N[C@@H](CCC(=O)O)C(=O)O)C(=O)O)ccc3O)CC(=O)O)c2)nn1)C(=O)O)[C@@H](C)O)C(C)C [gallium-68 labelled] — standardized uptake value (NMRI nu/nu mice, LNCaP tumour, kidneys; 135.34 nmol/kg, low molar activity): 7.38 g/g
N=C(N)NCCC[C@@H]1NC(=O)[C@H](CCCCNC(=O)CNC(=O)CNC(=O)CNC(=O)CC[C@H](NC(=O)CCOCCOCCOCCOCCNC(=O)CC[C@H](NC(=O)CN2CCN(CC(=O)O)CCN(CC(=O)O)CCN(CC(=O)O)CC2)C(=O)NCCOCCOCCOCCOCCC(=O)N[C@@H](CCC(=O)NCC(=O)NCC(=O)NCC(=O)NCCCC[C@@H]2NC(=O)[C@@H](Cc3ccccc3)NC(=O)[C@H](CC(=O)O)NC(=O)CNC(=O)[C@H](CCCNC(=N)N)NC2=O)C(=O)NCC(=O)NCC(=O)NCC(=O)NCCCC[C@@H]2NC(=O)[C@@H](Cc3ccccc3)NC(=O)[C@H](CC(=O)O)NC(=O)CNC(=O)[C@H](CCCNC(=N)N)NC2=O)C(=O)NCC(=O)NCC(=O)NCC(=O)NCCCC[C@@H]2NC(=O)[C@@H](Cc3ccccc3)NC(=O)[C@H](CC(=O)O)NC(=O)CNC(=O)[C@H](CCCNC(=N)N)NC2=O)NC(=O)[C@@H](Cc2ccccc2)NC(=O)[C@H](CC(=O)O)NC(=O)CNC1=O [indium-111 labelled] — log P (octanol/water): -3.93 ± 0.09
CSCC[C@H](NC(=O)[C@H](CC(C)C)NC(=O)[C@H](Cc1c[nH]cn1)NC(=O)CNC(=O)[C@@H](NC(=O)[C@H](C)NC(=O)[C@H](Cc1c[nH]c2ccccc12)NC(=O)[C@H](CCC(N)=O)NC(=O)CCCCCNC(=O)CNC(=O)CNC(=O)CNC(=O)CSC(C)=O)C(C)C)C(N)=O [technetium-99m labelled] — tissue uptake (nude mouse, PC-3 xenograft, stomach; 30 min, together with: excess unlabelled conjugate): 0.9 ± 0.2 %ID/g
CCCC[C@H](NC(=O)CNC(=O)[C@H](CO)NC(=O)CNC(=O)c1ccc(NN)nc1)C(=O)N[C@H]1CC(=O)NCCCC[C@@H](C(N)=O)NC(=O)[C@H](Cc2c[nH]c3ccccc23)NC(=O)[C@H](CCCNC(=N)N)NC(=O)[C@@H](Cc2ccccc2)NC(=O)[C@H](Cc2c[nH]cn2)NC1=O [technetium-99m labelled] — uptake (C57 mouse, B16/F1 melanoma, spleen; intravenous, 2 h): 0.08 ± 0.02 %ID/g
N=C(N)NCCC[C@@H]1NC(=O)[C@H](CCCCNC(=O)CCOCCOCCOCCOCCNC(=O)CC[C@H](NC(=O)CCOCCOCCOCCOCCNC(=O)CC[C@H](NC(=O)CN2CCN(CC(=O)O)CCN(CC(=O)O)CCN(CC(=O)O)CC2)C(=O)NCCOCCOCCOCCOCCC(=O)N[C@@H](CCC(=O)NCCOCCOCCOCCOCCC(=O)NCCCC[C@@H]2NC(=O)[C@@H](Cc3ccccc3)NC(=O)[C@H](CC(=O)O)NC(=O)CNC(=O)[C@H](CCCNC(=N)N)NC2=O)C(=O)NCCOCCOCCOCCOCCC(=O)NCCCC[C@@H]2NC(=O)[C@@H](Cc3ccccc3)NC(=O)[C@H](CC(=O)O)NC(=O)CNC(=O)[C@H](CCCNC(=N)N)NC2=O)C(=O)NCCOCCOCCOCCOCCC(=O)NCCCC[C@@H]2NC(=O)[C@@H](Cc3ccccc3)NC(=O)[C@H](CC(=O)O)NC(=O)CNC(=O)[C@H](CCCNC(=N)N)NC2=O)NC(=O)[C@@H](Cc2ccccc2)NC(=O)[C@H](CC(=O)O)NC(=O)CNC1=O [indium-111 labelled] — tumour to tissue ratio (athymic nude mice, female, U-87 MG glioma xenograft, tumour and blood; intravenous, 72 h; baseline: tumour over blood): 52.9 ± 4.95

Repeated from above:
Cc1ncsc1-c1ccc(CNC(=O)[C@@H]2C[C@@H](OC(=O)OCCSSCCn3cc(CCCC(=O)N[C@@H](Cc4ccc(O)cc4)C(=O)N[C@@H](CCCNC(=N)N)C(=O)N[C@@H](CCCNC(=N)N)C(=O)N[C@@H](CCCNC(=N)N)C(=O)N[C@@H](CCCNC(=N)N)C(=O)N[C@@H](CCCNC(=N)N)C(=O)N[C@@H](CCCNC(=N)N)C(=O)N[C@@H](CCCNC(=N)N)C(=O)N[C@@H](CCCNC(=N)N)C(=O)N[C@@H](CCCNC(=N)N)C(N)=O)nn3)CN2C(=O)[C@@H](NC(=O)COCCOCCOCCNC(=O)C[C@@H]2N=C(c3ccc(Cl)cc3)c3c(sc(C)c3C)-n3c(C)nnc32)C(C)(C)C)cc1 — remaining intact compound (UHPLC; PBS; 100 nM, 24 h, 37 °C, together with: 5 mM glutathione; baseline: total peak area): 0%
N=C(N)NCCC[C@@H]1NC(=O)[C@H](CCCCNC(=O)CCOCCOCCOCCOCCNC(=O)CC[C@H](NC(=O)CCOCCOCCOCCOCCNC(=O)CC[C@H](NC(=O)CN2CCN(CC(=O)O)CCN(CC(=O)O)CCN(CC(=O)O)CC2)C(=O)NCCOCCOCCOCCOCCC(=O)N[C@@H](CCC(=O)NCCOCCOCCOCCOCCC(=O)NCCCC[C@@H]2NC(=O)[C@@H](Cc3ccccc3)NC(=O)[C@H](CC(=O)O)NC(=O)CNC(=O)[C@H](CCCNC(=N)N)NC2=O)C(=O)NCCOCCOCCOCCOCCC(=O)NCCCC[C@@H]2NC(=O)[C@@H](Cc3ccccc3)NC(=O)[C@H](CC(=O)O)NC(=O)CNC(=O)[C@H](CCCNC(=N)N)NC2=O)C(=O)NCCOCCOCCOCCOCCC(=O)NCCCC[C@@H]2NC(=O)[C@@H](Cc3ccccc3)NC(=O)[C@H](CC(=O)O)NC(=O)CNC(=O)[C@H](CCCNC(=N)N)NC2=O)NC(=O)[C@@H](Cc2ccccc2)NC(=O)[C@H](CC(=O)O)NC(=O)CNC1=O [indium-111 labelled] — tumour to tissue ratio (athymic nude mice, female, U-87 MG glioma xenograft, tumour and blood; intravenous, 72 h; baseline: tumour over blood): 52.9 ± 4.95
